Earlier results as cited in several papers.
Each line is one published result; not all experiments were run side by side. Numbers after ± are the reported error.

Compound | target | test | system | setting | how to read | quantity | result
C=CCC(=N)NCCC[C@H](N)C(=O)O | bovine eNOS | – | – | 100 µM | – | inhibition | 45%
COC(=O)[C@H](CC(C)C)NC(=O)[C@@H]1CCCN1C(=O)[C@@H](NC(=O)[C@H](CCC(=O)C=[N+]=[N-])NC(=O)OCc1ccccc1)C(C)C | transglutaminase 2 | TG activity | Q7 striatal cells | 50 µM | – | inhibition | 75%
CCCC/C(=C(\c1ccccc1)c1ccc(S(C)(=O)=O)cc1)c1ccccc1 | cyclooxygenase-2 | – | – | – | baseline: COX-1 IC50 over COX-2 IC50 | selectivity ratio | > 7140
Cc1cc(C)c(S(=O)(=O)N(C)CC(=O)N(Cc2ccc(C3CCCCC3)cc2)c2ccc(C(=O)O)c(O)c2)c(C)c1 | STAT5 | item: MYC, CCND1 mRNA | – | concentration not given | – | concentration suppressing target genes | ~40 µM
CNC(=O)c1ccccc1Oc1nc(Nc2cc(OC)c(OC)c(OC)c2)ncc1Br | AMPK | – | – | 0.25 µM | – | inhibition | ~80%
CN(C(=O)c1ccccc1)c1ccc(C(O)(C(F)(F)F)C(F)(F)F)cc1 | LXRβ | agonist | – | – | – | EC50 | 180 nM
O=C(Nc1ccccn1)[C@]12C[C@H]1/C(=N\O)c1ccccc1O2 | mGlu2, 3, 5, 6, 7, 8 receptors | receptor activity | – | – | – | activity | > 30 µM
CC(=O)N[C@H]1[C@@H](O)[C@H](O)[C@@H](CO)O[C@H]1O | Staphylococcus aureus NanK | – | – | – | – | kcat | 1680 min^–1
CC(C)C(=O)Nc1c(NC[C@H](O)[C@H](O)[C@H](O)CO)[nH]c(=O)[nH]c1=O | Bacillus subtilis lumazine synthase | enzyme kinetics | recombinant β60 capsid | pH 7.0, added: substrate 2 fixed, 1 varied | – | kcat | 0.00667 ± 0.000167 s⁻¹
CC[C@H](C)[C@H](NC(=O)[C@H](CO)NC(=O)[C@H](CC(C)C)NC(=O)[C@@H]1CCCN1C(=O)[C@@H]1CCCN1C(=O)[C@H](CC(=O)O)NC(=O)[C@@H](N)CC(=O)O)C(=O)N[C@@H](CC(=O)O)C(=O)N[C@@H](CC(C)C)C(=O)N[C@H](C(=O)N[C@@H](Cc1ccccc1)C(=O)N[C@@H](Cc1c[nH]cn1)C(=O)N[C@@H](CC(C)C)C(=O)N[C@@H](CC(C)C)C(=O)N[C@@H](CCCNC(=N)N)C(=O)N[C@H](C(=O)N[C@@H](CC(C)C)C(=O)N[C@@H](CC(C)C)C(=O)N[C@@H](CCC(=O)O)C(=O)N[C@@H](CC(C)C)C(=O)N[C@@H](C)C(=O)N[C@@H](CCCNC(=N)N)C(=O)N[C@H](C(=O)N[C@@H](CCC(N)=O)C(=O)N[C@@H](CO)C(=O)N[C@@H](CCC(N)=O)C(=O)N[C@@H](CCCNC(=N)N)C(=O)N[C@@H](CCC(=O)O)C(=O)N[C@@H](CCCNC(=N)N)C(=O)N[C@@H](C)C(=O)N[C@@H](CCC(=O)O)C(=O)N[C@@H](CCC(N)=O)C(=O)N[C@@H](CC(N)=O)C(=O)N[C@@H](CCCNC(=N)N)C(=O)N[C@H](C(=O)N[C@H](C(=O)N[C@@H](Cc1ccccc1)C(=O)N[C@@H](CC(=O)O)C(=O)N[C@@H](CO)C(=O)N[C@H](C(N)=O)C(C)C)[C@@H](C)CC)[C@@H](C)CC)[C@@H](C)O)[C@@H](C)O)[C@@H](C)O | CRH receptor 1 | – | CRH-R1-transfected cells | – | – | EC50 | 1 to 3 nM
O=c1[nH]c(SC[C@H](O)[C@H](O)[C@H](O)CO)c([N+](=O)[O-])c(=O)[nH]1 | Bacillus subtilis lumazine synthase | – | recombinant β60 capsid | pH 7.0, Tris·HCl buffer, added: 2 constant, 1 varied | – | Ks | 21 ± 3 µM
COc1cc(F)c(C(C)C)cc1C1=C(CN2C(=O)O[C@H](c3cc(C(F)(F)F)cc(C(F)(F)F)c3)[C@@H]2C)CC(C)(C)CC1 | CETP | – | dyslipidemic hamster | 0.1 to 30 mg/kg, single dose | – | duration of CETP inhibition | 48 h
CCCCCCCCCCCC(=O)N[C@H](CO)C[C@@H](O)c1ccccc1 | START domain | binding | – | – | – | EC50 | 4100 nM
CC1(C)CC(=O)C2=C(C1)OC(N)=C(C#N)C2c1ccccc1 (centres unmarked) | calf thymus DNA | – | – | – | – | DNA binding constant | 500000 M⁻¹
Cc1ccc(-c2nc3ccc(NC(=O)CCl)cc3[nH]2)cc1 | PDGFR-α and PDGFR-β | inhibitor | – | concentration not given | – | inhibition | 42.7 to 52.6%
CC(C)[C@H](NC(=O)[C@@H]1CCCN1C(=O)[C@H](C)NC(=O)[C@H](CO)NC(=O)[C@H](C)NC(=O)[C@H](CC(N)=O)NC(=O)[C@H](CCC(=O)O)NC(=O)[C@@H](NC(=O)[C@H](CC(=O)O)NC(=O)[C@H](CCCCN)NC(=O)[C@H](C)NC(=O)[C@H](CCC(N)=O)NC(=O)[C@H](Cc1ccccc1)NC(=O)[C@H](C)NC(=O)[C@H](Cc1c[nH]c2ccccc12)NC(=O)[C@@H](NC(=O)[C@@H]1CCCN1C(=O)[C@@H](NC(=O)CN)C(C)C)C(C)C)C(C)C)C(=O)O | PCY1 peptide cyclase, Saponaria vaccaria | macrocyclization, substrate | – | – | – | turnover number | ~1 h⁻¹

Compound | target | test | system | setting | how to read | quantity | result
O=c1[nH]c(NC[C@H](O)[C@H](O)[C@H](O)CO)c([N+](=O)[O-])c(=O)[nH]1 | Bacillus subtilis lumazine synthase | enzyme kinetics | recombinant β60 capsid | pH 7.0, added: substrate 2 fixed, 1 varied | – | kcat | 0.02 ± 0.00167 s⁻¹
CC(=O)N1CCC(NC(=O)Nc2ccc(OC(F)(F)F)cc2)CC1 | soluble epoxide hydrolase (mouse) | binding, in vitro | – | – | – | residence time | 6 min
Nc1c(SC[C@H](O)[C@H](O)[C@H](O)CO)[nH]c(=O)[nH]c1=O | Bacillus subtilis lumazine synthase | – | recombinant β60 capsid | pH 7.0, Tris·HCl buffer, added: 2 constant, 1 varied | – | Ks | 16 ± 2 µM
O=C(N1CCC(C(c2ccc3c(c2)OCO3)c2ccc3c(c2)OCO3)CC1)n1cncn1 [carbon-11 labelled] | MAGL | – | rat, brain | concentration not given | – | blockade | ~50%
CCOC(=O)C(=O)Nc1c(NC[C@H](O)[C@H](O)[C@H](O)CO)[nH]c(=O)[nH]c1=O | Bacillus subtilis lumazine synthase | – | recombinant β60 capsid | pH 7.0, Tris·HCl buffer, added: 2 constant, 1 varied | – | Ks | 5.4 ± 0.5 µM
O=C(NCc1ccc(Br)cc1)N1CCN(Cc2cc(F)cc(F)c2)CC1 | bacterial ClpP | activity class | – | concentration not given | – | activity | inactive
Cc1cc(N)nc(C[C@@H]2CNC[C@@H]2OCCCCCc2ccccn2)c1 | nNOS | – | – | – | baseline: eNOS over nNOS | selectivity ratio | 2000 fold
C[C@H](NC(=O)[C@@H]1CCCN1C(=O)[C@@H]1CCCN1C(=O)[C@H](C)NC(=O)[C@@H](NC(=O)[C@H](CO)NC(=O)CNC(=O)[C@@H]1CCCN1C(=O)[C@H](C)NC(=O)[C@@H]1CCCN1C(=O)[C@@H](N)CCCNC(=N)N)[C@@H](C)O)C(=O)N[C@@H](Cc1c[nH]cn1)C(=O)NCC(=O)O | 14 A monoclonal antibody | SPR | – | – | – | kon | 12200 M⁻¹ s⁻¹
CCc1cc(O)cc2c(/C=N/NC(=N)NCCc3ccc(Cl)cc3)c[nH]c12 | RXFP4 | agonist | – | – | – | EC50 | 2 nM
Cc1cccc(C)c1NC(=O)C1CCN(Cc2ccccc2)C1 (centres unmarked) | sodium channel (human) | channel block | – | – | baseline: compound over tocainide | potency ratio | 10
CSc1nn(CC(=O)Nc2ccc(F)c(F)c2)c(N)c1-c1nc(-c2ccc3c(c2)OCO3)no1 | FANCM/RMI | PubChem screen | – | concentration not given | – | activity | inactive
COc1cc(OC)c(CN2CCN(C)CC2)c(O)c1/C=C/C(=O)c1cccc(Br)c1 | beta-glucuronidase | – | – | 10 µM | – | inhibition | 75%
Nc1c2ncn3c2nc[n+]1[C@@H]1O[C@H](COP(=O)(O)OP(=O)([O-])OC[C@@H]2C[C@@H](O)[C@H]3O2)[C@@H](O)[C@H]1O | cADPR receptor | – | permeabilised Jurkat T cells | concentration not given | – | activity | inactive
N[C@@H](Cc1ccc(O)c(Cl)c1)C(=O)O | iodotyrosine deiodinase | substrate | – | – | – | dechlorination yield | ~94%
COCn1ccc(NCCNCCCOc2ccc3c(NCCCc4ccccc4)ncnc3c2)nc1=O | human DNMT3A catalytic domain | enzyme activity | – | 32 µM | – | inhibition | 0%
Nc1ncnc(NCC2CCN(C(=O)C(O)CO)CC2)c1-c1ccc(Oc2ccccc2)cc1 (centres unmarked) | BTK | – | – | concentration not given | – | activity | inactive
